Measurements of several laboratories.
Values joined by “and” are separate records of one study, mostly repeats; a detail may differ. ± gives the spread as reported.

With CC1=NN(c2ccc(C(=O)O)cc2)C(=O)/C1=C\c1ccc(-c2cc(C)c(C)cc2[N+](=O)[O-])o1 the viability was 79.4% (OCI-Ly1; 0.5 µM, 120 h).
With CC(C)NCC(O)c1ccc(O)c(O)c1 (centres unmarked) the sarcomere length was 1.72 µm (ventricular cardiomyocytes, C57BL/6 mouse; dose not given, 0.432 s).
O=C(NS(=O)(=O)C1CC1)c1cc2ccccc2n1Cc1ccc(Br)c2ccccc12: “serum uric acid” 940 µM and 1120 µM and 1080 µM (mouse, acute hyperuricemia model; dose not given).
For COc1ccc(-c2cncc(N[C@@H](C)c3cccc(NC(=O)c4cncc(C)c4)c3)n2)cc1OC, the fold change was 1.04 (measured: rno-miR-361-5p; rat SU5416/hypoxia model, lung; dose not given; relative to: SU5416/hypoxia vehicle).
For Cn1cc(Nc2nccc(-c3ccc4c(c3)CN(C3COC3)CC[C@H]4NC(=O)c3cn(C(C)(C)C)nn3)n2)cn1, “pathway activation z-score” read -2.14 (measured: Unfolded protein response; splenic B cells, mouse; in vivo, 30 mg/kg, IgD-activated B cells; relative to: vehicle, positive = activation).
COc1nnc2ccc(N3CCC(c4ccc(OCCN5CCN(C)C(=O)[C@H]5C)cc4)CC3)nn12 — result for “time above HEXIM1 threshold”: 1.39 h (human patients; 2 mg once daily, 1.5-fold above baseline).
For CCCCN1C[C@H](O)[C@@H](O)[C@H](O)[C@H]1CO, the IC15 was over 100000 nM (barrier function (TEER); human ileal GI microtissue EpiIntestinal-FT).
The viability of CC(=O)Nc1ccc(C(=O)Nc2ccccc2N)cc1 is reported as 33.1% (OCI-Ly1; 0.5 µM, 120 h).
The ED50 of O=C1Nc2ccccc2C1=Cc1ccccn1 is reported as 7.3 mg/kg (antithrombotic activity; rat carotid FeCl3 thrombosis; oral).
For [Cl-].[Cl-].[Pt+2].[Ru+2].c1ccc(-c2nccnc2-c2ccccn2)nc1.c1cnc2c(c1)ccc1cccnc12.c1cnc2c(c1)ccc1cccnc12, “activation free energy” read 24.4 ± 1.67 kcal/mol (chloride substitution, UV-vis kinetics; aqueous buffer; pH 7.2, 35 °C, second substitution step, with: L-methionine).
For NC(=O)c1cnc2[nH]ccc2c1N[C@@H]1[C@@H]2CC3C[C@H]1C[C@@](O)(C3)C2, “change from baseline” read 1.15% (flow cytometry, measured: CD8+ central memory T cells; Japanese healthy subjects, peripheral blood; oral, 30 mg twice daily, day 7).
The sarcomere length of O=C(O)CNC(=O)Cc1ccccc1 is reported as 1.72 µm (ventricular cardiomyocytes, C57BL/6 mouse; dose not given, 0.36 s).
N#Cc1ccn2c(-c3ccncc3)c(-c3ccc(F)cc3)nc2c1 — result for “log2 fold change”: -0.184 (kinase binding, competitor, MIB/MS competition, measured: PKH2; Candida albicans cell lysate; 100 nM; relative to: DMSO).
The ejection fraction of NC/C(=C\F)COc1cccc(Cn2c(=S)[nH]c(=O)c3[nH]cnc32)c1 is reported as 61.1% and 78.3% and 76.2% and 70.9% and 81.7% (rats, myocardial ischaemia/reperfusion (LAD ligation); dose not given).
CSCCNc1nc(SCCC(F)(F)F)nc2c1ncn2[C@@H]1O[C@H](COP(=O)(O)OP(=O)(O)C(Cl)(Cl)P(=O)(O)O)[C@@H](O)[C@H]1O — result for “high residual platelet reactivity”: 48.5% (ADP-induced platelet aggregation, Multiplate aggregometry; human patients, whole blood; dose not given, 3 h, AUC above 46; relative to: patients).
With CC1(C)CCC(CN2CCN(c3ccc(C(=O)NS(=O)(=O)c4ccc(NCC5CCOCC5)c([N+](=O)[O-])c4)c(Oc4cnc5[nH]ccc5c4)c3)CC2)=C(c2ccc(Cl)cc2)C1 the EC50 was 35.7 nM (cell killing; canine lymph node CD21+ B cells, dog 39; 24 h).
Under “serum uric acid decrease”, CCc1oc2ccccc2c1C(=O)c1cc(Br)c(O)c(Br)c1 is recorded as 80.6% (mouse, acute hyperuricaemia model, serum; oral, 2 mg/kg; relative to: vehicle model).
FC(F)(F)Oc1cccc(-c2cnc3ccc(-c4ccncc4)nn23)c1 gave a tumour growth of 333% and 400% and 199% and 268% and 184% and 173% (bioluminescence; mouse, MDA-MB-231-Luc xenograft; 10 mg/kg, day 14).
OC(CCN1CCCCC1)(c1ccccc1)C1CC2C=CC1C2 (centres unmarked) — result for “EEG beta power, O2 Pz, change in”: -13.7% (resting-state EEG; healthy elderly humans; oral, 4 mg, eyes closed, LS mean; relative to: baseline).
For C[C@H]1C[C@H]2CSC(N)=N[C@@]2(c2nc(NC(=O)c3ccc(OC(F)F)cn3)cs2)CO1, “plasma Aβx-40 change” read -59.4% (healthy adults, fed, plasma; oral, 200 mg single dose, 6 h; relative to: baseline, placebo-adjusted).
